Measured values collected from several papers.
Each numbered part is a random draw from the data of one study; scales do not carry over between parts.

Block 1
Target: PABPC1L2, full length, GST fusion (mouse, UniProt A0ABA7IW68)
Technique: RNAcompete
Molecule type: RNA
Medium: in vitro
Concentration: 20 nM
Setting: 7-mer, probes averaged, single round
Relative to: mean of 7-mers
Reading: higher = stronger binding
Measurement: 7-mer Z-score
Target sequence (chain): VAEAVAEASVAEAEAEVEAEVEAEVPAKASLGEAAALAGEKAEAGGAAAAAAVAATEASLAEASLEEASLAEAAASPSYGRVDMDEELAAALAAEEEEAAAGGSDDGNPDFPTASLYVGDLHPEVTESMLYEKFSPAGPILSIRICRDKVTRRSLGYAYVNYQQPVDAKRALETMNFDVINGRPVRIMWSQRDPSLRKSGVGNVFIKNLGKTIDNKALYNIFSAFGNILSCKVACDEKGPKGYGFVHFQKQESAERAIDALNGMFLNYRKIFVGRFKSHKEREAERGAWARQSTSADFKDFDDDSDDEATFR
AGCCGCU: -0.318
CGCUCUU: -0.257
CCGACAC: -0.222
CGAGCUG: -0.186
ACAUCAC: -0.0899
AGGGUGC: 0.405
CAUCCGG: -0.132
UCUUCAU: -0.342
GGAACCU: -0.0536
ACUAGUG: -0.224
AUACAAA: 1.72
CCUGAAA: 0.439
CGCCUUC: -0.507
CUCCAUG: -0.19
UGUGCAU: -0.113
CGCCGGG: -0.273
UGCUAAU: -0.179
GACUGAA: 0.0352

Block 2
Target: Histone acetyltransferase KAT6A, winged helix 2, GST fusion (KAT6A, Homo sapiens, UniProt Q92794, residues 85-181)
Technique: protein binding microarray
Molecule type: double-stranded DNA, one strand shown
Medium: in vitro
Concentration: not given
Setting: 8-mer, flanks averaged, mean of 2 arrays, mostly near background
Relative to: not given
Reading: higher = stronger binding
Measurement: E-score
Construct (chain): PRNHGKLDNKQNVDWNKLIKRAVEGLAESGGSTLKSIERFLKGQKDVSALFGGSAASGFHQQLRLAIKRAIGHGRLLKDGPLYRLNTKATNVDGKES
CCCTCCCA: 0.155
ACCAGAAT: -0.00088
TCCAGGAA: 0.0272
AGTTCGGA: -0.0101
ATAATACG: 0.0668
GAGGGACA: 0.0457
AAGAGGAT: -0.193
AGCGCACT: -0.0315
AAGGAGAG: -0.172
AGAATCTG: 0.0115
TATAACGA: -0.0123
CCAGTAGG: -0.0891
ATGCACGG: 0.0907
TACGATCA: -0.117
AGCATATG: -0.0978
ACACCCGG: 0.00785
TGGGCACA: 0.0741
GATCATGC: 0.00154
ATAATGAG: -0.143
CGTCGTTC: 0.0344
CTGTGTTC: -0.0537
CTATGCCA: -0.121
GCTCGAAC: 0.0883
AAATGGCG: -0.0762
ATCCTACA: -0.0426

Block 3
Target: Interferon regulatory factor 7, full length, phosphomimetic (IRF7, Homo sapiens, UniProt Q92985, residues 1-503, S471D/S472D/S475D/S476D/S477D/S483D/S484D/S487D)
Technique: protein-binding microarray
Molecule type: double-stranded DNA, one strand shown
Medium: in vitro
Concentration: 2200 nM top
Setting: 60-bp whole probe
Added: salmon DNA 0.4 mg/ml
Relative to: random background probes
Reading: higher = stronger binding
Measurement: fitted relative affinity
Constant ends, left off below: GCCTAGCAC … GTCTTGATTCGCTTGACGCTGCTG
Residues (chain): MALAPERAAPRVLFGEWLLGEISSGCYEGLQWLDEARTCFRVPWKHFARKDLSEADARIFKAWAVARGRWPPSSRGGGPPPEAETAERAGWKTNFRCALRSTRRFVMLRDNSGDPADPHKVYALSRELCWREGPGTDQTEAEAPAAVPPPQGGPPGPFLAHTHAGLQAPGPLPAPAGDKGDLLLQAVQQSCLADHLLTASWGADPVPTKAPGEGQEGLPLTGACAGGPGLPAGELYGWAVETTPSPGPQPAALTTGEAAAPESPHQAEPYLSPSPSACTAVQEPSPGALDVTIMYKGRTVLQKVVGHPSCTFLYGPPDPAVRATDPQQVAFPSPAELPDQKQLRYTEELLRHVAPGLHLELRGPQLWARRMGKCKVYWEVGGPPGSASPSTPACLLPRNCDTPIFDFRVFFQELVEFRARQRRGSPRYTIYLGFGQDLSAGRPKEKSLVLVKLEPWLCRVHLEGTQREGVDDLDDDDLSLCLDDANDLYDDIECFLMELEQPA
TTAGGTTTCGACTTTCGGTTGGTGCTA: 12.8 z-score
TTAGGTTTCGGTATAGGTTAGTGCTAG: 6.02 z-score
GTAGGTTTCGGACTGGGTTAGTGCTAG: 3.25 z-score
TTAGGTTTCGGTTTCGGGTAGTGCTAG: 15.6 z-score
CACGATTCCAGTTTCGAGACGTGCTAG: 4.23 z-score
ATGTGTTTAAGAATGTTTTTGTGCTAG: 0.592 z-score
GTGGTTCTGCTTCTTAGCGCGTGCTAG: 1.18 z-score
CCTCTTCTGGATCTCAGACTGTGCTAG: 1.46 z-score
TAAGGTCTCCTTATCCTTTAGTGCTAG: 0.798 z-score
TTATAACTGAGTCTCGATTAGTGCTAG: 0.0934 z-score
GACGGTATCCATCTCCTGACGTGCTAG: 0.9 z-score
TTAGATATCGGGTTTCGGTTAGTGCTA: 3.91 z-score
GACGGTTCCGGTTTCGGAACGTGCTAG: 6.03 z-score
CTAGGACTGGGTCTCGGTTAGTGCTAG: -0.741 z-score
GACGGTTTACTTATCCTGACGTGCTAG: 1.54 z-score
TCATCATTATTGTCTCCCACTGTGCTA: 1.45 z-score
TTAGATTCCAGTATCGATTAGTGCTAG: 0.855 z-score
GCCGGACTGGGTATCGGGACGTGCTAG: -0.878 z-score
TCCTCTTTCACTGCTCCATACGTGCTA: 3.28 z-score
GGTTTTCTCTATTGCTTTCTGTGCTAG: 2.88 z-score

Block 4
Target: Prothrombin, mature alpha-thrombin (F2, Homo sapiens, UniProt P00734)
Technique: aptamer microarray, sandwich
Molecule type: DNA with 2'F-ANA
Medium: in vitro
Concentration: 200 nM
Setting: whole 15-mer aptamer, many near background
Added: Cy3 exosite-II aptamer, 400 nM
Reading: higher = stronger binding
Measurement: mean fluorescence intensity
Oligonucleotide: GGTTGGTGTGGTTGG
2'F-ANA at 6 7 8 9 10 11 13 14 15: 103 a.u.
2'F-ANA at 1 4 6 7 9 10 14 15: 47.9 a.u.
2'F-ANA at 1 2 3 4 6 7 9 10 14 15: 54.1 a.u.
2'F-ANA at 4 5 6 7 8 10 11: 130 a.u.
2'F-ANA at 2 3 6 8 9 10 13: 317 a.u.
2'F-ANA at 3 4 7 8 14: 432 a.u.
2'F-ANA at 1 3 5 6 7 10 11: 46.7 a.u.
2'F-ANA at 1 4 7 9 10 11 13 15: 51.9 a.u.
2'F-ANA at 1 2 4 7 9 10 12 13: 61.4 a.u.
2'F-ANA at 4 7 8 9 13: 229 a.u.
2'F-ANA at 5 6 7 8 10 11 12 14 15: 53.4 a.u.
2'F-ANA at 2 3 5 6 9 11 12 14 15: 102 a.u.
2'F-ANA at 2 3 4 9 10: 394 a.u.
2'F-ANA at 2 3 6 8 9 12 13 14 15: 339 a.u.
2'F-ANA at 2 3 6 9 10 11 15: 296 a.u.
2'F-ANA at 4 6 7 10 13 14: 57.1 a.u.
2'F-ANA at 1 2 3 5 6 7 9 10 12 14 15: 64.2 a.u.
2'F-ANA at 1 2 3 4 6 7 9 10 12 13 14: 52 a.u.
2'F-ANA at 3 4 8 10 11 12: 318 a.u.
2'F-ANA at 1 4 6 7 8 11: 112 a.u.
2'F-ANA at 4 5 6 7 9 10 11 12 15: 48.1 a.u.
2'F-ANA at 1 2 3 4 5 6 8 10 13 14 15: 60.6 a.u.
2'F-ANA at 3 6 9 10 12 13 14: 385 a.u.
2'F-ANA at 1 2 4 5 13 14 15: 45.2 a.u.
2'F-ANA at 1 3 4 5 7 8 13 15: 55.3 a.u.

Block 5
Target: RING finger protein unkempt homolog, zinc fingers 1-6, SBP tag (UNK, Homo sapiens, UniProt Q9C0B0, residues 30-357)
Chain of UniProt Q9C0B0 (30-357, looked up): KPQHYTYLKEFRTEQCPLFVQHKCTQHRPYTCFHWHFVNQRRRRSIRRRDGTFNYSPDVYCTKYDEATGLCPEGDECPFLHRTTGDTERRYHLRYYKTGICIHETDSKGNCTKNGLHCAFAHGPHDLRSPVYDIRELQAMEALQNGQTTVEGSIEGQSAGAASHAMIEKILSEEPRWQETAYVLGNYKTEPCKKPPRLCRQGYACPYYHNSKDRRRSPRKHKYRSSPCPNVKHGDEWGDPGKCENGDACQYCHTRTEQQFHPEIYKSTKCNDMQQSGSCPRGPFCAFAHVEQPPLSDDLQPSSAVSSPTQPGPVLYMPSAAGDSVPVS
Technique: RNA Bind-n-Seq
Molecule type: RNA
Medium: in vitro
Concentration: 100 nM
Setting: RNA with constant flanks, vertebrate orthologous sites, ends assumed
Relative to: input RNA pool
Reading: higher = stronger binding
Measurement: bound/input enrichment
Constant ends, left off below: GGGAGUUCUACAGUCCGACGAUC … CAACAGAGGAUUGAGCAUCA
GUGUUUUGGUACAAAGCUGUGUACCAAUACUCAUCUUCUUUACAUUAUACCGACUAUCCCUAGAAAUAGUUUAAUAUUUUUCAGAAUUUUACAUUGCUGUAUAUUCAAAAUUUUAAAGAU: 0.53 ratio
CAAUUCAAUGGUCGAGGGUUCCGAACUCAAAAAGGUUCGCUCCAACUCCAGGAUUUACCAUAGGUACUUUUUACUGGAUGCUGACAUGCAGAGCCUGAGGUGGGAACCAUCUAAGAAGGA: 0.152 ratio
GUGACUUUGGGCGUCCGCACAUCUUGAGUGCAGAGGCUGCUUGGUCUUGGGCCUGAUAGGUUUUUCUUAUCUGUGGCAGGAGGCCUCUAUUGCCAACAUGCUCCGCCAGAUCCUUGGUCA: 0.392 ratio
CUACUAUAAACAACUCAGGGCAGUAUUCUCGAUAUCCUUACAGUAACCUAAAUCAGGGAUUAGUUAACAAUACAGGGAUGAAUCAGAAUUUAGGCCUUACAAGUAAUACUCCAAUGAACC: 1.02 ratio
ACCUUUUGUAGGCCAAAUACCUUCCUUCCACUGCUUCUGCCAACUGGAAGCACAGAAAACUAGAAUUUCAUUUAUUUUGUUUAAAAAAAAAAUUGAUUUCUUGUAACAUCCAAUAGGAAU: 0.537 ratio
CUGUGAGCAGCUCGGGGCCGUUCGUGCAGUGCACGUAUGGCGGCGUCGCCGAUCAGGGAAUAAUUGGCGGUGCUCGGUUGAGCCAGGGUCUAUCCCCUAAUCACCUCAAUAAUGGAAAUC: 0.314 ratio
UUACAGUCAUUGAUGGACUCUAUUUUUUUAUUAUUACUUGGACCUUGGUCGUUUUUAUACUAGCAAAAUGUCUUGUUUUGAUUUGUGUUCUUUUGGUUUUUGUUUUGUUUUUAUUUUUUG: 1.78 ratio
UUGUUGUGUACAGGGCAUUCUCUGUACUAGUUUGUUGUGGUUAUAAAACAUUUAGCAAAACAGCUUACAUUUGUAUUUAUUUUCUAUUCCAUACUUCUGUGCCCCAUGUGUUUCUCUUAA: 0.656 ratio
AUUAUAGCAAAAAGAGCCAAGCAGUAGCAUUGUGGGGUUUUUUGUAAAUGUAAAAAUACUUAGAUCCAGACUUUGUUUCCUUCAAUUUUAAAAAUAAAAAAUACCUCAGUGCUAUGUUUU: 0.649 ratio
ACCCCAGUUUGUAUGUUCAUUAUUCACAUUCCUGUUUGUGUUUGGGAAACAAAAGACAUUUUAGCCUUUUUUAAGGUUAUUGACUUCAUUUCAUGUUAUUUGGCUGCAUGAGGUUGCCCU: 0.322 ratio
AGCUUCUGGUGACAUUUGGCCCGGCCUUUCAGCAUAUGAUAACAGUCCAAGGUCACCCCAUAGUCCUUCUAUUGCUUCCCCACCUAGUCAGAGUUCGUCUUGCUCUGAUGCGCCCUUACU: 0.839 ratio

Some of these lines once more (block 3):
TCATCATTATTGTCTCCCACTGTGCTA: 1.45 z-score
TTAGATTCCAGTATCGATTAGTGCTAG: 0.855 z-score
GCCGGACTGGGTATCGGGACGTGCTAG: -0.878 z-score
TCCTCTTTCACTGCTCCATACGTGCTA: 3.28 z-score
GGTTTTCTCTATTGCTTTCTGTGCTAG: 2.88 z-score
